Measured values of several laboratories.
Compare with care: the assays were run in different laboratories.
Organism: Pseudomonas aeruginosa

O=C(O)CC[C@@H]1NC(=O)[C@H](CCC(=O)O)NC(=O)[C@H](CCC(=O)O)NC(=O)[C@H](Cc2c[nH]c3ccccc23)NC(=O)[C@H](Cc2c[nH]c3ccccc23)NC(=O)[C@H](Cc2c[nH]c3ccccc23)NC(=O)[C@H](CCC(=O)O)NC1=O
MIC (broth microdilution; PAO1; 37 °C): > 134 µg/mL

CCCCCC/C=C\CCCCCCC[C@@H](O)Cc1cc(O)cc(O)c1
MIC (broth microdilution; PAO1 chloramphenicol-resistant; 37 °C): > 64 µg/mL

CC(C)C[C@@H]1NC(=O)[C@H](CCCCN)NC(=O)CSC[C@@H]2NC(=O)[C@H](CC(C)C)NC(=O)[C@H](CC(C)C)NC(=O)[C@H](CCCCN)NC(=O)[C@H](CCCCNC(=O)[C@H](CCCCN)NC1=O)NC(=O)[C@H](CCCCN)NC(=O)[C@H](CC(C)C)NC(=O)[C@H](CCCCN)NC(=O)CSC[C@@H](C(=O)N[C@@H](CCCCN)C(N)=O)NC(=O)[C@H](CC(C)C)NC(=O)[C@H](CC(C)C)NC(=O)[C@H](CC(C)C)NC2=O
MIC (PAO1; 18 h): 256 µg/mL

CC[C@H](C)[C@@H]1NC(=O)CNC(=O)[C@H](CCCCN)NC(=O)[C@H](C)NC(=O)[C@H](CCC(=O)O)NC(=O)[C@H](Cc2ccccc2)NC(=O)[C@H](CO)NC(=O)[C@H](CC(C)C)NC(=O)[C@H](C(C)C)NC(=O)[C@H](CC(=O)O)NC(=O)[C@@H](NC(=O)[C@@H](NC(=O)[C@@H](N)C(C)C)[C@@H](C)O)CSSC[C@@H]2NC(=O)[C@H](CO)NC(=O)CNC(=O)CNC(=O)[C@H](CCCCN)NC(=O)[C@H](CCCCN)NC(=O)[C@H](CCCNC(=N)N)NC(=O)[C@H](CC(C)C)NC(=O)[C@H](C)NC(=O)[C@H]([C@@H](C)CC)NC(=O)[C@H](C)NC(=O)[C@H](Cc3c[nH]cn3)NC(=O)[C@H](CC(C)C)NC(=O)[C@H](C)NC(=O)[C@H](CSSC[C@@H](C(=O)N[C@H](C(=O)N[C@@H](C)C(=O)N[C@@H](CCCNC(=N)N)C(=O)N[C@@H](CC(N)=O)C(=O)O)C(C)C)NC(=O)[C@H](C(C)C)NC(=O)CNC(=O)[C@H](CC(N)=O)NC(=O)[C@H](CCC(N)=O)NC2=O)NC(=O)[C@H](C)NC(=O)[C@H](CO)NC(=O)[C@H](Cc2c[nH]cn2)NC(=O)[C@H](CC(N)=O)NC(=O)[C@H](C(C)C)NC(=O)[C@H](C)NC1=O
MIC (broth microdilution; KCTC 1637; 16 h, 37 °C): > 100 µM

C[C@@](O)(C(F)F)[C@H](NC(=O)c1ccc(C#CC#CC2CC2)cc1)C(=O)NO
MIC (broth microdilution; PAO1, CAMHB with 50% mouse plasma): 0.5 µg/mL

CC(C)C[C@@H]1NC(=O)[C@H](CC(C)C)NC(=O)[C@H](CC(C)C)NC(=O)[C@@H]2CSCC(=O)N[C@@H](CCCCN)C(=O)N[C@@H](CCCCN)C(=O)N[C@@H](CCCCN)C(=O)N[C@@H](CCCCNC(=O)[C@H](CCCCN)NC(=O)[C@H](CCCCN)NC(=O)[C@H](CCCCN)NC(=O)CSC[C@@H](C(=O)N[C@@H](CCCCN)C(N)=O)NC1=O)C(=O)N[C@@H](CCCCN)C(=O)N[C@@H](CC(C)C)C(=O)N[C@@H](CC(C)C)C(=O)N2
MIC (PAO1; 18 h): 32 µg/mL

CC(C)[C@H](NC(=O)[C@H](CCCCN)NC(=O)[C@H](CCCNC(=N)N)NC(=O)CNC(=O)[C@H](C)NC(=O)[C@H](CC(N)=O)NC(=O)[C@H](CCCNC(=N)N)NC(=O)[C@@H](NC(=O)[C@H](CCCCN)NC(=O)[C@H](CC(=O)O)NC(=O)[C@@H](NC(=O)[C@@H](NC(=O)[C@H](CCCNC(=N)N)NC(=O)[C@H](CCCNC(=N)N)NC(=O)[C@H](Cc1c[nH]c2ccccc12)NC(=O)[C@H](Cc1c[nH]c2ccccc12)NC(=O)CN)[C@@H](C)O)C(C)C)C(C)C)C(=O)O
MIC (clinical strain 110; 18 h, 37 °C): > 256 µg/mL

CC[C@H](C)[C@H](NC(=O)[C@H](CCCCN)NC(=O)[C@H](CCCNC(=N)N)NC(=O)[C@@H](NC(=O)[C@H](CC(C)C)NC(=O)[C@H](CCCCN)NC(=O)[C@H](CC(C)C)NC(=O)[C@@H](NC(=O)[C@H](CCCCN)NC(=O)CNC(=O)[C@H](Cc1ccccc1)NC(=O)[C@@H](N)Cc1ccccc1)C(C)C)[C@@H](C)CC)C(=O)N[C@@H](Cc1ccccc1)C(N)=O
MIC (broth microdilution): > 100 µM

CCCCCCCCCCCCCC(=O)N[C@H](CCN)C(=O)N[C@H](C(=O)N[C@@H](CCN)C(=O)N[C@@H](CC(C)C)C(=O)N[C@@H](CCN)C(=O)N[C@H](Cc1ccccc1)C(=O)N[C@@H](CC(C)C)C(=O)N[C@@H](CCN)C(=O)N[C@H](Cc1ccc(O)cc1)C(=O)N[C@H](C(=O)N[C@@H](CC(=O)O)C(=O)O)C(C)C)[C@@H](C)O
MIC (broth microdilution; BNCC 186070): 4 µg/mL

CC[C@@H](C)[C@@H](NC(=O)[C@@H](C)NC(=O)[C@@H](CCCCN)NC(=O)[C@@H](CC(C)C)NC(=O)[C@@H](C)NC(=O)[C@H](NC(=O)[C@@H](Cc1c[nH]cn1)NC(=O)[C@@H](CC(C)C)NC(=O)[C@H](NC(=O)[C@H](NC(=O)[C@@H](CCCCN)NC(=O)[C@@H](CCCCN)NC(=O)[C@@H](C)NC(=O)[C@@H](CO)NC(=O)[C@@H](CCCCN)NC(=O)[C@@H](Cc1ccccc1)NC(=O)[C@H](NC(=O)[C@@H](CCCCN)NC(=O)[C@@H](CC(C)C)NC(=O)[C@@H](Cc1ccccc1)NC(=O)[C@@H](CO)NC(=O)[C@@H](CCCCN)NC(=O)[C@@H](Cc1c[nH]c2ccccc12)NC(=O)[C@@H](CCCCN)NC(C)=O)[C@H](C)O)[C@H](C)O)C(C)C)[C@H](C)O)C(=O)N[C@H](CO)C(=O)N[C@H](CO)C(N)=O
MIC (broth microdilution; PAK; 24 h, 37 °C): 5.2 µM

For quick reference, copied from above:
CC[C@H](C)[C@@H]1NC(=O)CNC(=O)[C@H](CCCCN)NC(=O)[C@H](C)NC(=O)[C@H](CCC(=O)O)NC(=O)[C@H](Cc2ccccc2)NC(=O)[C@H](CO)NC(=O)[C@H](CC(C)C)NC(=O)[C@H](C(C)C)NC(=O)[C@H](CC(=O)O)NC(=O)[C@@H](NC(=O)[C@@H](NC(=O)[C@@H](N)C(C)C)[C@@H](C)O)CSSC[C@@H]2NC(=O)[C@H](CO)NC(=O)CNC(=O)CNC(=O)[C@H](CCCCN)NC(=O)[C@H](CCCCN)NC(=O)[C@H](CCCNC(=N)N)NC(=O)[C@H](CC(C)C)NC(=O)[C@H](C)NC(=O)[C@H]([C@@H](C)CC)NC(=O)[C@H](C)NC(=O)[C@H](Cc3c[nH]cn3)NC(=O)[C@H](CC(C)C)NC(=O)[C@H](C)NC(=O)[C@H](CSSC[C@@H](C(=O)N[C@H](C(=O)N[C@@H](C)C(=O)N[C@@H](CCCNC(=N)N)C(=O)N[C@@H](CC(N)=O)C(=O)O)C(C)C)NC(=O)[C@H](C(C)C)NC(=O)CNC(=O)[C@H](CC(N)=O)NC(=O)[C@H](CCC(N)=O)NC2=O)NC(=O)[C@H](C)NC(=O)[C@H](CO)NC(=O)[C@H](Cc2c[nH]cn2)NC(=O)[C@H](CC(N)=O)NC(=O)[C@H](C(C)C)NC(=O)[C@H](C)NC1=O
MIC (broth microdilution; KCTC 1637; 16 h, 37 °C): > 100 µM
